Measurements of several laboratories.
A part holds a random share of what one study measured. Changes are numbered by the printed parent chain.

Study 1 — technique: protein binding microarray; molecule type: double-stranded DNA, one strand shown; matrix: in vitro; concentration: not given; reference: not given; reading: higher = stronger binding; quantity: E-score
Target: Histone acetyltransferase KAT6A, winged helix 2, GST fusion (KAT6A, Homo sapiens, UniProt Q92794, residues 85-181)
Setting: 8-mer, flanks averaged, mean of 2 arrays, mostly near background
Construct (chain): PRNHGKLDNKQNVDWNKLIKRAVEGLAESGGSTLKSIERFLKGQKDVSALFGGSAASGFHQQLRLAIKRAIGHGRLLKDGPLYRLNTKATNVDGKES
TCCGTAGA: -0.0944
GGTAGAAC: -0.105
ACTTTCAT: -0.0507
CGGGTTAA: 0.119
CCACAAAG: 0.197

Study 2 — target: CCNB1, cyclin fold, Cln2 fusion (human); technique: yeast growth competition, sequencing; matrix: yeast; setting: weak parent motif; reference: not given; reading: higher = stronger binding; quantity: normalised enrichment score
Starting sequence: CDKN1B docking peptide (human); PSACRNLFGPVDH
G9A: 0.399
R5M: 0.349
S2L: 0.428
D12A: 0.684

Study 3 — technique: universal PBM; molecule type: double-stranded DNA, one strand shown; matrix: in vitro; concentration: not given; reading: higher = stronger binding; quantity: E-score
Target: Sal-like protein 4, full length isoform B (SALL4, Homo sapiens, UniProt Q9UJQ4-2, residues 1-616)
Setting: 8-mer, flanks averaged, mean of replicates
Residues (chain): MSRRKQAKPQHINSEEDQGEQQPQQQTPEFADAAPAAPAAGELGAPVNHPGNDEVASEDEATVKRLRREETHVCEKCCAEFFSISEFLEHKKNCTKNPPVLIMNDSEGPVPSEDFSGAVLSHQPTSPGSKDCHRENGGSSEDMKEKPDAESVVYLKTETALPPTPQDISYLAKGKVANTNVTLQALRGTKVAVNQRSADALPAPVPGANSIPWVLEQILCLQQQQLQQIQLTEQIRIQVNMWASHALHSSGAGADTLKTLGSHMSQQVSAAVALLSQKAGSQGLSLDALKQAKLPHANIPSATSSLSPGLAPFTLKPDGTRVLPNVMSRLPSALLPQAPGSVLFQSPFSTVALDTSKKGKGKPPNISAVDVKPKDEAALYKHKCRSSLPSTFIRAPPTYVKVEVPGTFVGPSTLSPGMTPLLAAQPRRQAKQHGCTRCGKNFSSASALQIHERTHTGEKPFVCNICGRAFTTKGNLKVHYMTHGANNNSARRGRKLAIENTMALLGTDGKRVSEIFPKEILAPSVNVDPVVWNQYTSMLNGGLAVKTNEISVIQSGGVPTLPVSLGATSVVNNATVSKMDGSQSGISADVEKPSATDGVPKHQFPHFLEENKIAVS
CATCGACC: -0.137
TCCACGCA: -0.0584
TATCTAGA: 0.155
GGCTTCCC: -0.234
TAAATGAA: 0.24

Mixed results
PhoQ, residues 284 288 289 292 302 303 AEGLLW
fold induction (PhoP, residues 12 14 15 18 19 NIMAP (Escherichia coli, UniProt P23836); Sort-seq, item: YFP reporter; E. coli; PhoQ-PhoP variant library, together with: 10 µM Mg2+; reference: high Mg2+ state, higher = stronger signaling): 0.764

Excerpt of the above (study 2):
S2L: 0.428
D12A: 0.684
